Values quoted from earlier work that unrelated publications cite.
Compare with care: the assays were run in different laboratories. Numbers after ± are the reported error.

For `Cn1c(Cn2ccc(C(F)(F)F)c(Oc3cc(Cl)cc(C#N)c3)c2=O)n[nH]c1=O`, the EC50 was 13.3 ± 99.8 nM (HIV-1; viral replication; MT-4, L100I mutant).
`CC[C@H]1CN2CCc3cc(OC)c(OC)cc3[C@@H]2C[C@@H]1C[C@H]1NCCc2cc(OC)c(OC)cc21` has an IC50 of 46 nM (SARS-CoV-2; cytopathic effect; USA_WA1/2020).
The EC50 of `COc1ccc2c(O[C@@H]3C[C@H]4C(=O)N[C@]5(C(=O)NS(=O)(=O)C6CC6)C[C@H]5/C=C\CCCCN(C)C(=O)[C@@H]4C3)cc(-c3nc(C(C)C)cs3)nc2c1C` is reported as 9000 nM (SARS-CoV-2; viral replication; A549-hACE2).
`Cc1cccc(/C=N/Nc2cc(N3CCOCC3)nc(OCCc3ccccn3)n2)c1` gave an IC50 of 23 nM (SARS-CoV-2; cytopathic effect; USA_WA1/2020).
The EC50 of `CC[C@@H](C)[C@H]1O[C@]2(CC[C@@H]1C)C[C@@H]1C[C@@H](C/C=C(\C)[C@@H](O[C@H]3C[C@H](OC)[C@@H](O[C@H]4C[C@H](OC)[C@@H](O)[C@H](C)O4)[C@H](C)O3)[C@@H](C)/C=C/C=C3\CO[C@@H]4[C@H](O)C(C)=C[C@@H](C(=O)O1)[C@]34O)O2` is reported as 1300 nM (SARS-CoV-2; cytopathic effect; Vero E6 cells; 72 h).
The infectivity reduction of `C[C@@H]1[C@H](O)[C@@H](C)/C=C/C=C/CC/C=C/C=C/C=C/C=C/C(O[C@H]2O[C@H](C)[C@@H](O)[C@H](N)[C@@H]2O)CC2O[C@](O)(CC(O)C(O)CCC(O)CC(O)CC(O)CC(=O)O[C@H]1C)CC(O)C2C(=O)O` (stereo partly drawn) is reported as at most 80% (African swine fever virus; macrophages; concentration not given).
With `CCC(CC)COC(=O)[C@H](C)N[P@](=O)(OC[C@H]1O[C@@](C#N)(c2ccc3c(N)ncnn23)[C@H](O)[C@@H]1O)Oc1ccccc1` the EC50 was 9000 nM (SARS-CoV-2; cytopathic effect; Vero E6 cells; 72 h).
Under “IC50 fold change”, `Cc1ccnc2c1NC(=O)c1cccnc1N2C1CC1` is recorded as 1.9 fold (HIV-1 reverse transcriptase K101Q; reference: K101Q over wild type).
With `CC(C)(C)c1ccc(S(=O)(=O)/C=C/C#N)cc1` the inhibition was 3.2% (SARS-CoV-2; cytopathic effect; Caco-2; 10 µM).

For quick reference, copied from above:
Under “IC50 fold change”, `Cc1ccnc2c1NC(=O)c1cccnc1N2C1CC1` is recorded as 1.9 fold (HIV-1 reverse transcriptase K101Q; reference: K101Q over wild type).
